Results gathered from unrelated publications.
Each numbered part is a random draw from the data of one study; scales do not carry over between parts. Substitutions count along the parent as printed.

Series 1
Target: RNA binding protein fox-1 homolog 2, RRM domain, GST-SBP tag (RBFOX2, Homo sapiens, UniProt O43251-10, residues 100-194)
Method: RNA Bind-n-Seq
Form: RNA
Sample: in vitro
Concentration: 365 nM
Setting: natural RNA segment, single round, ends assumed
Baseline: no-protein control
Direction: higher = stronger binding
Endpoint: RBNS enrichment (R)
All sequences stand within: GGGAGUUCUACAGUCCGACGAUC … UGGAAUUCUCGGGUGCCAA
Target sequence (chain): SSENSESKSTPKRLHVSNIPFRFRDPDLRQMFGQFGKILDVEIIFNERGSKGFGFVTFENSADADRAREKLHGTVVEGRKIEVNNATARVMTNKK
UGUAAUGGCCUGAGGGAUGGUGAAGCAUUCUUUUAGUAUUUUUCAUCAUGUUGGGCUCCUAGAUUGUACUGGGGUUGCCCAUAAAUCAAACCCCAUACUCUUAGAAUUCA: 0.217
UCCAAUUUAACUCUCUGAAUAUGUUGCCAUAAUUGGAGCUUUUUCCUUCUUCUGAUUCCUUUAAGCUCUCCCACCCUUGUGGACUUGGUAGUUAAGAGGUUCCACAGAGU: 0.324
AACCAUGGACACAGAGACCUUAGGGGCUGGGCUUCUCUCCGCACAUGGAGAACAGGAGCCGGGCCCUGGGAUCCUUCUGUUCUGUUAAACAGAACAGAACAGCCUUUGCA: 0.66
AAACUUGUUAGCUUCGAUGAAGUCACUUCAUCUUCUCUCCUGCCUUAUUUUUUUAAAUAAGUUUUUAGGUCCUGACACUGACAUCAAAUACAUGCACACCAGAAAGGCAU: 0.485
UAAACAGUCUAGGUGCUCCUAACAACCACCCCCUGCCCGGGCCUCUCCUUUGUGAGCCACAGUUGUAGACCGUACCUCAGCCUUGGAGUCAACACAGCCCACAGCCCAUU: 0.474
CAGCUACCACGGGUCUGCCAUGCUCUGGAGGAGCAAGGGGGCCACAUCCCCACCCCAGCUGUUACCCAGCCCGGGGCAGGUGCAGCCCUUCCUCCCUGUCUCUGCAUCUG: 0.239
GCUGAAGGAAACCAGUGCAACAGCACUGGCUCUCUCCAGGAUCCAGAAGGGGUUUGGUCUGGGACUUCCUUGCUCUCCCUCUUCUCAAGUGCCUUAAUAGUAGGGUAAGU: 0.332
ACUUUGGGUCCGGAGGGCGAGACUCCGGCAGACGCAUUCCCGGGCAGGUGACCAAGCACGGUCCCUCGUGGGACUGGAUUCGCCAUUUUCUUAUAUCUGCUGCUAAAUCG: 0.303
AGGUCUGCUGUGGGCAAGUAUAGCCUAACCCUAGUCUUGUAAAAUAAGCCAGAAAGGGUUACUGAGCCACCUUAAGCUAGUACCUAUAUAGUAGGCAAAAAGUACAGAAA: 0.31
ACACUGAGUUGUACAAAUUGUGAUUGAGGAGAUGAAAAAGUUUAUACUUUUUAAAAAAAAAAAAAACAAAAAACAAAACUUCAAAUGGAAUAAAUUAUUCAUGAAGCCUU: 0.777
AGGGGGUAAAAUCAAGAGAAAAAACUCUCAGGAAUCAAGGAACAUAAUCCUGUGGAGGGUAAUCCAUUACAUGAGCUUCUCCUGUUCUUCCACUUUCCUGCCUGGCUUUC: 0.401
CUGUGGGGGAACUCAGUGGCAGGAAGCUAGUGGUCCCUGGGAACAGGGGACAGGAAUCCGUACCCAACUGCCCCGUUCUUUCUUCCCAUUCUUUCUUCCUAGGAUGCAUA: 0.375

Series 2
Target: TEF, bZIP domain (human)
Method: DHFR protein complementation
Sample: yeast
Setting: single substitutions, most at no-binding floor
Baseline: wild-type JUN-FOS pair
Direction: higher = stronger binding
Endpoint: binding fitness
Parent: JUN, bZIP domain (human); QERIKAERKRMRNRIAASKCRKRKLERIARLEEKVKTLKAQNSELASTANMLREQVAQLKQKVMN; partner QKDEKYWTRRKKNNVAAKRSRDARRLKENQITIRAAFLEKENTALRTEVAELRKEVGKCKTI
A49S: -1.41 natural log
R30F: -1.5 natural log
T48R: -1.39 natural log
S43W: -1.5 natural log
K39D: -1.47 natural log
S47I: -1.42 natural log
A46C: -1.43 natural log
L38Q: -1.59 natural log
M51T: -1.18 natural log
A40C: -1.26 natural log
I28S: -1.36 natural log
Q55V: -1.49 natural log
E54M: -1.48 natural log
K36H: -1.46 natural log
A57G: -1.46 natural log
S43I: -1.28 natural log
L45P: -1.55 natural log
Q55K: -1.24 natural log
S43D: -1.43 natural log
R30M: -1.49 natural log
V35G: -1.42 natural log
I28C: -1.34 natural log
A29D: -1.53 natural log

Series 3
Target: CRIPT, C-terminal peptide
Method: DHFR complementation, deep sequencing
Sample: yeast
Setting: single substitutions, model-inferred values
Baseline: wild type
Direction: higher = weaker binding
Endpoint: binding free energy change
Parent: ERBIN, PDZ domain 1 (human); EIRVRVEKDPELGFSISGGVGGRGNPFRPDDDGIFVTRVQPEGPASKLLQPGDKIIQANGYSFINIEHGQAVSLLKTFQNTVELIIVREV; partner TKNYKQTSV
Q79S: 0.037 kcal/mol
N25G: 0.935 kcal/mol
V36E: 0.267 kcal/mol
I66V: -0.0392 kcal/mol
P29Y: 0.168 kcal/mol
S46C: 0.0318 kcal/mol
G21H: 0.163 kcal/mol
I85C: -0.105 kcal/mol
I66E: 0.643 kcal/mol
I34Y: 1.41 kcal/mol
G22C: 0.0203 kcal/mol
R88D: 0.295 kcal/mol
D30Y: 0.363 kcal/mol
P10W: -0.36 kcal/mol
S17V: 0.109 kcal/mol
F14E: 0.365 kcal/mol

Series 4
Target: Histone acetyltransferase KAT6A, winged helix 2, GST fusion (KAT6A, Homo sapiens, UniProt Q92794, residues 85-181)
Method: protein binding microarray
Form: double-stranded DNA, one strand shown
Sample: in vitro
Concentration: not given
Setting: 8-mer, flanks averaged, mean of 2 arrays, mostly near background
Baseline: not given
Direction: higher = stronger binding
Endpoint: E-score
Residues (chain): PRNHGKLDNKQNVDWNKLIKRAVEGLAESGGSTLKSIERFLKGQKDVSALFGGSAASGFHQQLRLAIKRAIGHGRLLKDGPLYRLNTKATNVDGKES
GGACCAAC: 0.0407
AGAGCGTG: 0.0276
GTCTGCAA: -0.0333
GAGGACCA: -0.048
GCCTTGAA: -0.00804
ACTCTCCT: -0.186
AATCTCCT: 0.0589
GTCGAACA: 0.196
TAGGCATA: -0.0695
GGACATAA: -0.000455
AGTCCCTC: 0.0636
ATTCCGCG: 0.0733
CTCCCGGC: 0.194
ACTGTCAG: -0.103
GACAGATC: 0.0475
ACAATGCC: -0.144

Series 5
Target: CCNA1, cyclin fold, Cln2 fusion (human)
Method: yeast growth competition, sequencing
Sample: yeast
Setting: weak parent motif
Baseline: not given
Direction: higher = stronger binding
Endpoint: normalised enrichment score
Parent: DTL docking peptide (human); PSSMRKICTYFHR; partner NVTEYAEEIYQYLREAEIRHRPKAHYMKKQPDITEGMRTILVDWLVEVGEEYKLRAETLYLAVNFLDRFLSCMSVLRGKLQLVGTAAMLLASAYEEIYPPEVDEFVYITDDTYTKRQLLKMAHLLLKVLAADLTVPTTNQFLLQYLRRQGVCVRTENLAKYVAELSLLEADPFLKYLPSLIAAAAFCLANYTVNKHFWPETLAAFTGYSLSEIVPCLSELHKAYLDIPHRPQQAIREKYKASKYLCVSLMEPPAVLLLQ
I7A: 0.0143
R5A: -0.195
T9A: -0.321
S2A: -0.0695
H12A: -0.23
M4A: -0.185
R13A: -0.679

Series 6
Target: Prothrombin, mature alpha-thrombin (F2, Homo sapiens, UniProt P00734)
Method: aptamer microarray, sandwich
Form: DNA with 2'F-ANA
Sample: in vitro
Concentration: 200 nM
Setting: whole 15-mer aptamer, many near background
Together with: Cy3 exosite-II aptamer, 400 nM
Direction: higher = stronger binding
Endpoint: mean fluorescence intensity
Oligonucleotide: GGTTGGTGTGGTTGG
2'F-ANA at 1 3 5 6 7 8 12 13 14 15: 48.3 a.u.
2'F-ANA at 3 4 5 8 12 14: 60.7 a.u.
2'F-ANA at 1 2 3 8 9 10 12 15: 97.1 a.u.
2'F-ANA at 3 6 13 14: 568 a.u.
2'F-ANA at 1 2 5 6 7 12 14 15: 46.6 a.u.
2'F-ANA at 1 4 6 7 8 9 10 11 12 13 14: 45.9 a.u.
2'F-ANA at 1 2 3 7 8 9 12 15: 635 a.u.
2'F-ANA at 1 4 5 8 12: 123 a.u.
2'F-ANA at 2 4 5 6 8 9 11 15: 58.1 a.u.
2'F-ANA at 1 3 6 10 12 14 15: 92.1 a.u.
2'F-ANA at 1 3 5 6 7 8 12 13 15: 106 a.u.
2'F-ANA at 1 2 3 5 6 9 10 12 13 14 15: 48.7 a.u.
2'F-ANA at 2 4 5 7 8 11 14 15: 70.3 a.u.
2'F-ANA at 2 4 6 7 8 11 12 13: 367 a.u.
2'F-ANA at 3 4 5 8 10 11 14 15: 53.4 a.u.
2'F-ANA at 1 9 11 14 15: 51.6 a.u.
2'F-ANA at 7 8 10 14: 115 a.u.
2'F-ANA at 1 6 8 11 12 13 15: 281 a.u.
2'F-ANA at 2 3 4 7 8 12 13 15: 680 a.u.
2'F-ANA at 2 5 6 7 8 9 10 14 15: 71.2 a.u.
2'F-ANA at 5 6 8 9 10 11 12 15: 78.1 a.u.
2'F-ANA at 4 7 8 10 11 12 14: 72.7 a.u.
2'F-ANA at 1 2 5 6 7 10 11 15: 49.5 a.u.
2'F-ANA at 4 5 10 12: 52.4 a.u.
2'F-ANA at 3 4 5 6 8 9 11 15: 73 a.u.

Single results of other studies
PhoQ, residues 284 288 289 292 302 303 SVHLDV — fold induction (PhoP, residues 12 14 15 18 19 NHTVL (Escherichia coli, UniProt P23836); Sort-seq, refers to: YFP reporter; E. coli; PhoQ-PhoP variant library, together with: 10 µM Mg2+; baseline: high Mg2+ state, higher = stronger signaling): 13.8

Some of these lines once more (series 1):
UCCAAUUUAACUCUCUGAAUAUGUUGCCAUAAUUGGAGCUUUUUCCUUCUUCUGAUUCCUUUAAGCUCUCCCACCCUUGUGGACUUGGUAGUUAAGAGGUUCCACAGAGU: 0.324
AACCAUGGACACAGAGACCUUAGGGGCUGGGCUUCUCUCCGCACAUGGAGAACAGGAGCCGGGCCCUGGGAUCCUUCUGUUCUGUUAAACAGAACAGAACAGCCUUUGCA: 0.66
UAAACAGUCUAGGUGCUCCUAACAACCACCCCCUGCCCGGGCCUCUCCUUUGUGAGCCACAGUUGUAGACCGUACCUCAGCCUUGGAGUCAACACAGCCCACAGCCCAUU: 0.474
CAGCUACCACGGGUCUGCCAUGCUCUGGAGGAGCAAGGGGGCCACAUCCCCACCCCAGCUGUUACCCAGCCCGGGGCAGGUGCAGCCCUUCCUCCCUGUCUCUGCAUCUG: 0.239
AGGGGGUAAAAUCAAGAGAAAAAACUCUCAGGAAUCAAGGAACAUAAUCCUGUGGAGGGUAAUCCAUUACAUGAGCUUCUCCUGUUCUUCCACUUUCCUGCCUGGCUUUC: 0.401
UGUAAUGGCCUGAGGGAUGGUGAAGCAUUCUUUUAGUAUUUUUCAUCAUGUUGGGCUCCUAGAUUGUACUGGGGUUGCCCAUAAAUCAAACCCCAUACUCUUAGAAUUCA: 0.217
AGGUCUGCUGUGGGCAAGUAUAGCCUAACCCUAGUCUUGUAAAAUAAGCCAGAAAGGGUUACUGAGCCACCUUAAGCUAGUACCUAUAUAGUAGGCAAAAAGUACAGAAA: 0.31
ACACUGAGUUGUACAAAUUGUGAUUGAGGAGAUGAAAAAGUUUAUACUUUUUAAAAAAAAAAAAAACAAAAAACAAAACUUCAAAUGGAAUAAAUUAUUCAUGAAGCCUU: 0.777
AAACUUGUUAGCUUCGAUGAAGUCACUUCAUCUUCUCUCCUGCCUUAUUUUUUUAAAUAAGUUUUUAGGUCCUGACACUGACAUCAAAUACAUGCACACCAGAAAGGCAU: 0.485
CUGUGGGGGAACUCAGUGGCAGGAAGCUAGUGGUCCCUGGGAACAGGGGACAGGAAUCCGUACCCAACUGCCCCGUUCUUUCUUCCCAUUCUUUCUUCCUAGGAUGCAUA: 0.375
ACUUUGGGUCCGGAGGGCGAGACUCCGGCAGACGCAUUCCCGGGCAGGUGACCAAGCACGGUCCCUCGUGGGACUGGAUUCGCCAUUUUCUUAUAUCUGCUGCUAAAUCG: 0.303
GCUGAAGGAAACCAGUGCAACAGCACUGGCUCUCUCCAGGAUCCAGAAGGGGUUUGGUCUGGGACUUCCUUGCUCUCCCUCUUCUCAAGUGCCUUAAUAGUAGGGUAAGU: 0.332
